# Results of several laboratories.
# Compare with care: the assays were run in different laboratories. Values joined by “and” are separate records of one study, mostly repeats; a detail may differ. ± marks the error that the study gave.
# BCHE: Cholinesterase (BCHE, Homo sapiens, UniProt P06276)
# Sequence of UniProt P06276 (whole entry, looked up): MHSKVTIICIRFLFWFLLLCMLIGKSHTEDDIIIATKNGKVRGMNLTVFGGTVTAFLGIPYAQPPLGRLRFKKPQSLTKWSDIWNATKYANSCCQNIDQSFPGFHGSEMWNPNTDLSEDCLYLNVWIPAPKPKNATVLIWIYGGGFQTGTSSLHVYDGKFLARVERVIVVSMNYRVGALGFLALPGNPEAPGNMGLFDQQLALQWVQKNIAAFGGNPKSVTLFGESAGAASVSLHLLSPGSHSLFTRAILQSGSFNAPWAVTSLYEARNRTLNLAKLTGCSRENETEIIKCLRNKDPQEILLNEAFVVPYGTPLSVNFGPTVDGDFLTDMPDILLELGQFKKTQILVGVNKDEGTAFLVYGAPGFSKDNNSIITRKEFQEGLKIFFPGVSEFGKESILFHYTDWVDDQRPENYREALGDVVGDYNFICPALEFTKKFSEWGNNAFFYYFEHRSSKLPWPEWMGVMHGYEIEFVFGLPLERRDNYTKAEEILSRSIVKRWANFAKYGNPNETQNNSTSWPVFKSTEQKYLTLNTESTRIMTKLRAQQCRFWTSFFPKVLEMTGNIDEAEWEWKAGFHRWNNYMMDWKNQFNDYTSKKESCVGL
# Sequence of UniProt Q15759 (whole entry, looked up): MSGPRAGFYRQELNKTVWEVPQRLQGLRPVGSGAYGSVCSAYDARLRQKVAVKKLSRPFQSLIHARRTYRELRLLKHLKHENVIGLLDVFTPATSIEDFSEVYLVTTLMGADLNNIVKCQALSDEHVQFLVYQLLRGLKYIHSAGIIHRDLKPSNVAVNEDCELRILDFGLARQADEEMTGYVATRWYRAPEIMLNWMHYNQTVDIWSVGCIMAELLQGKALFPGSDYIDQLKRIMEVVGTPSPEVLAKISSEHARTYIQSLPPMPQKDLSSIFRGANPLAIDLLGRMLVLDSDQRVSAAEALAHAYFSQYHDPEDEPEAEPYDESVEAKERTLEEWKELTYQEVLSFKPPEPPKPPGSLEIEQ
# Sequence of UniProt P10768 (whole entry, looked up): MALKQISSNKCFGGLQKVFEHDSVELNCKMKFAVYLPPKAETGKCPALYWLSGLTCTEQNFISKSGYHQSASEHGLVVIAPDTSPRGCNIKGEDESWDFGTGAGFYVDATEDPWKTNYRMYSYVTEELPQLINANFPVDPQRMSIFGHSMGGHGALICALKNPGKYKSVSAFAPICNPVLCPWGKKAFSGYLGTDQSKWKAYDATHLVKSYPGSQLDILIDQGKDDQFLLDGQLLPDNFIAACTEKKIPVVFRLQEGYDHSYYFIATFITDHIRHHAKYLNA
# Sequence of UniProt P00747 (whole entry, looked up): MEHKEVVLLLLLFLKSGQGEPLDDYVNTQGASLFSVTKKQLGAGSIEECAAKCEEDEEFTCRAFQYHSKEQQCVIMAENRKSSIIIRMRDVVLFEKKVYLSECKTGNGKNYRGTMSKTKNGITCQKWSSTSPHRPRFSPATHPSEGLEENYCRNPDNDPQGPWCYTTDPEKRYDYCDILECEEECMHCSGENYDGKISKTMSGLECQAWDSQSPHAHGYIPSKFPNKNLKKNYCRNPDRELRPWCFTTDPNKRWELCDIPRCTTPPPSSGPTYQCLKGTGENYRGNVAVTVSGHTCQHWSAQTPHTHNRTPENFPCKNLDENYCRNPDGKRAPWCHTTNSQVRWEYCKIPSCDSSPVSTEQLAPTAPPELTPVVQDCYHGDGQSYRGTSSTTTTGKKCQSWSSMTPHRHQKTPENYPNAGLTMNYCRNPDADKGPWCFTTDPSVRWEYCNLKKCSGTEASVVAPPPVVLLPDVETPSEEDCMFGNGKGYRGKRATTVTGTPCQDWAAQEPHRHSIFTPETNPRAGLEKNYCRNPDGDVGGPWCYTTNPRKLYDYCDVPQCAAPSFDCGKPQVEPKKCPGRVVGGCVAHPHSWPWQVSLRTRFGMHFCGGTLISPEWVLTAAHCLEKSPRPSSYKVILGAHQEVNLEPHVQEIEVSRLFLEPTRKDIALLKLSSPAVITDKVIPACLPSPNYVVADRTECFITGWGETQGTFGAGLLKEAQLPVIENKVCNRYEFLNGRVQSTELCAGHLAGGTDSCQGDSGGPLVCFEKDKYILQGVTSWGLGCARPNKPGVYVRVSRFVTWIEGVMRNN
# Sequence of UniProt P30411 (whole entry, looked up): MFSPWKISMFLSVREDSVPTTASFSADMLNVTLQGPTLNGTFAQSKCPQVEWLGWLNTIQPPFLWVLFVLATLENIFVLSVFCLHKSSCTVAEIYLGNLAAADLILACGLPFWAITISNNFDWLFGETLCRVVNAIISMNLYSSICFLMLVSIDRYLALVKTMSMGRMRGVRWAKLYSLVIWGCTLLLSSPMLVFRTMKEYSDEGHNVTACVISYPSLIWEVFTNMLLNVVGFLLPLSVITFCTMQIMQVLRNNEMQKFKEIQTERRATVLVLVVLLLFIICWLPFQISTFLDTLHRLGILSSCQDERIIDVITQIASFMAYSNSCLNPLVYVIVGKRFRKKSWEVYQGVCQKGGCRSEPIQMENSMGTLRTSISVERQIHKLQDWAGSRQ
SMILES,tested on,assay,test system,setting,how to read,measurement,value
COc1cc(C[C@@H](C)N)c(OC)cc1I,Plasmodium falciparum,,GB4,,,IC50,10000 nM
CS(=O)(=O)Nc1ncn(-c2cc(F)c(COc3ccc(OS(=O)(=O)F)cc3)c(F)c2)n1,Mycobacterium tuberculosis,,"drug-resistant clinical isolate, lineage 2",,,MIC,0.02 µM
CC(C)(C)C(O)(CCc1ccc(Cl)cc1)Cn1cncn1 (stereo not shown),Botrytis cinerea,"fungal growth, inhibitor",B05.10 wild type,168 h,,EC50,131 ± 58.9 nM
CCC(CC)COC(=O)[C@H](C)N[P@](=O)(OC[C@H]1O[C@@](C#N)(c2ccc3c(N)ncnn23)[C@H](O)[C@@H]1O)Oc1ccccc1,respiratory syncytial virus,,RSV-infected cells,concentration not given,,apoptosis,decreased
CC(=O)N[C@H]1[C@H]([C@H](O)[C@H](O)CO)OC(C(=O)O)=C[C@@H]1N=C(N)N,influenza A virus H3N2,"viral cytopathic effect, MTS",MDCK,,,EC50,400 nM
CC[C@@H](C)[C@@H]1NC(=O)[C@@H]2CCCN2C(=O)[C@H](Cc2ccccc2)N(C)C(=O)[C@H](Cc2ccccc2)NC(=O)[C@H](C(C)C)N(C)C(=O)[C@@H]([C@H](C)CC)OC(=O)[C@H](C(C)(C)O)N(C)C(=O)[C@H](CC(C)C)NC(=O)[C@H](C(C)C)N(C)C1=O,Botrytis cinerea,"fungal growth, inhibitor",B05.10 wild type,168 h,,EC50,40.8 ± 22.1 nM
CCCCCCC[N+](CC)(CC)CCCCc1ccc(Cl)cc1,BCHE,"inhibitor, fluorometric",,,,IC50,15700 ± 7410 nM
COc1cc(CCC[P+](c2ccccc2)(c2ccccc2)c2ccccc2)c(OC)c2c1OCO2.[I-],NCI-H226,SRB,,,,LC50,> -4 log M
O=C(OCCCc1ccccc1)c1ccc(Oc2ccc(O)cc2)cc1,Magnaporthe oryzae,,"Guy11, rice leaves",concentration not given,,lesion area,decreased
O=C(O)c1cnccn1,Mycobacterium bovis,,BCG ATCC 35734,120 h,,MIC50,800 µM
NC(=O)c1ncn([C@@H]2O[C@H](CO)[C@@H](O)[C@H]2O)n1,Influenza B virus,,MDCK,,,EC50,4800 nM
Nc1ccn(C[C@@H](CO)OCP(=O)(O)O)c(=O)n1,Fowlpox virus,viral infection,CEF,12.5 µM,reference: untreated,infection,92.5% and 100% and 105%
O=C(c1ccc(Cl)cc1)N1CCN2C(=O)N(OC(=O)N3CCOc4ccccc43)C(=O)C2C1 (stereo not shown),"S-formylglutathione hydrolase (Homo sapiens, UniProt P10768)",MS-based ABPP,SW-620 conditioned medium,"10 µM, 1 h, 37 °C","reference: compound over DMSO, lower = more inhibition",median protein ratio,1.22
NC[C@H]1O[C@H](O[C@H]2[C@H](O)[C@@H](O[C@H]3O[C@H](CO)[C@@H](O)[C@H](N)[C@H]3O)[C@H](N)C[C@@H]2N)[C@H](O)[C@@H](O)[C@@H]1O,Mycobacterium bovis,,BCG,,,MIC,0.625 µg/mL
CC[C@H](C)[C@@H]1NC(=O)[C@@H]2CCCN2C(=O)[C@H](CC(C)C)NC(=O)[C@H](CC(C)C)NC(=O)CNC(=O)[C@@H](NC(=O)[C@@H](NC(=O)[C@H](CC(=O)O)NC(=O)CNC(=O)[C@@H](NC(=O)[C@H](C)NC(=O)CNC(=O)[C@H](CCCCN)NC(=O)[C@H](CC(C)C)NC(=O)[C@H](CC(C)C)NC(=O)[C@H](CCCCN)NC(=O)CNC(=O)[C@@H](NC(=O)[C@@H](N)CC(C)C)C(C)C)C(C)C)C(C)C)CSSC[C@@H](C(=O)O)NC1=O,,"RNA-seq, measured: Arg2","mouse, traumatic brain injury model, frontal cortex and hippocampus",dose not given,reference: TBI alone,log2 fold change,-2.61
COc1cc(Nc2ncc(F)c(Nc3ccc4c(n3)NC(=O)C(C)(C)O4)n2)cc(OC)c1OC,"Plasminogen (PLG, Homo sapiens, UniProt P00747)",,,,,IC50,> 10000 nM
NC(=O)c1ncn([C@@H]2O[C@H](CO)[C@@H](O)[C@H]2O)n1,influenza A virus H3N2,"viral cytopathic effect, MTS",MDCK,,,EC50,4800 nM
C[C@]12N[C@H](Cc3ccccc31)c1ccccc12,Plasmodium falciparum,,GB4,,,IC50,3980 nM
N#Cc1c[nH]cc1-c1cccc2c1OC(F)(F)O2,Botrytis cinerea,"fungal growth, inhibitor",B05.10 wild type,168 h,,EC50,25.9 ± 0.6 nM
C[C@H]1CN(c2n[nH]c3nc(N[C@H]4CC[C@H](NS(=O)(=O)CCC(F)(F)F)CC4)ncc23)CCO1,"Mitogen-activated protein kinase 11 (MAPK11, Homo sapiens, UniProt Q15759)","competitor, Kinobeads competition","HEK293, K562, placenta extract",4 µM,reference: vehicle,relative abundance,0.3
CCCCCCC(=O)CCCCCC/C=C/C[C@@H](O)[C@H](O)[C@@](N)(CO)C(=O)O,Botrytis cinerea,"fungal growth, inhibitor",B05.10 wild type,168 h,,EC50,934 ± 34.1 nM
O=C(NCCCNc1nc(Nc2cccc(CN3CCOCC3)c2)ncc1C1CC1)C1CCC1,BCHE,"inhibitor, fluorometric",,,,IC50,2640 ± 363 nM
OC(Cn1cncn1)(Cn1cncn1)c1ccc(F)cc1F,Saccharomyces cerevisiae,cell growth,"Pdr5 deleted, Cdr1 overexpressed",2^5.322 µg/mL,,OD600,0.832 and 0.887 and 0.902
CC(C)NC(=O)N1CC(=O)N(c2cc(Cl)cc(Cl)c2)C1=O,Botrytis cinerea,"fungal growth, inhibitor",B05.10 wild type,168 h,,EC50,604 ± 286 nM
CN(C(=O)n1cnc(-c2ccc[n+]([O-])c2)c1)C1CCCCC1,"B2 bradykinin receptor (BDKRB2, Homo sapiens, UniProt P30411)",radioligand binding,,"50 µM, added: [3H]bradykinin",,inhibition,1%

# A few entries again:
SMILES,tested on,assay,test system,setting,how to read,measurement,value
CS(=O)(=O)Nc1ncn(-c2cc(F)c(COc3ccc(OS(=O)(=O)F)cc3)c(F)c2)n1,Mycobacterium tuberculosis,,"drug-resistant clinical isolate, lineage 2",,,MIC,0.02 µM
